Published values of several laboratories.
Each numbered part is a random draw from the data of one study; scales do not carry over between parts. Substitutions count along the parent as printed.

Series 1 — method: RNA Bind-n-Seq; form: RNA; sample: in vitro; tested at: 365 nM; reference: no-protein control; reading: higher = stronger binding
Target: RNA binding protein fox-1 homolog 2, RRM domain, GST-SBP tag (RBFOX2, Homo sapiens, UniProt O43251-10, residues 100-194)
Notes: natural RNA segment, single round, ends assumed
Constant ends, left off below: GGGAGUUCUACAGUCCGACGAUC … UGGAAUUCUCGGGUGCCAA
Target sequence (chain): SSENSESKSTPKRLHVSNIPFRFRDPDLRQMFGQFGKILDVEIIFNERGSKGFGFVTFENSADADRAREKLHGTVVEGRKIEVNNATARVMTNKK
Sequence | RBNS enrichment (R)
UCACCUAUGUACAAUGGAGAGGGGUUCUAAGCACAAAUCUGCUGCUCAUGUAACGGUGGUACAUAAUAUCAAAUCAAAAGUUAUCUGUGACUAUAUAUAGGGAUCACAAA | 0.365
CUCCUCGGCCUUGAAGGCCCAAUGACAGGCCUUGCCUCAAGGCCUUUCCUUCUCAGAGCCUCCUGAACCCCUGGGUAGGGCCUCCCCAUGUACCCUGCCGACUGACUGAG | 0.391
CAAAUUAAAAUUCCAAAAUUCAUUGAAAUCCUAAAGCCUUGAUAUUAUAUUCUUUAUAAGGCGUGUGCCAGCCUGUAUAGUAUAUAAGAGAGAGGGGUGUUUGUGUGUAU | 1.49
UUUGAAUACAAUGCUACAUAUGAAUGUUGAAGCUGAUACAUUGCACAGUUCUGUAGACAUCACUACACCGAUGUAGUUUCUCAAAUUUUAGCAAUAUGCUCUACAUAAAA | 8.69
CAUGCUUGGGGACUGGUCCCACUGGAUCUCUAUCCUAACGUCCAUGGCCGUCAGCACCCCUCCUUUCCCCAAGGUGAAAUGGAGGGUGCUGUGGGGGCCUGCCCACUCCA | 0.508
CAUGCUUAAAAAGGAUGCCUCUUGUUUCUUGCUGCUGUAACUUACCAGAAAGUGUUAUAUAUUUAUUUCUGUCGGAACAGUGUUAUGCUACAAGACUUCAUAAUGGUUUU | 0.603
ACAAAAUGCAGAAAUUCCUUCUGAAGGACUAAAGCGACCAGCUGUCUGCCACACCUGCAGUAACACAGAGCAACAGAUUCCCAGCCCGUGAUGAGAGCCUGUAGCUCGUG | 0.467
CUGUGUAGUGAGGGAUACUGAGGGCAGUCCUGUGGCUGAGGGGCACAGAUUGAACUGCUGAACUAGUUGGAGGUCUAGAUGAGGUGCUUUACGCAUCAGCUGCCUUAGAC | 0.685
AGGACCCAGACCGGUGUCUUGCUCUAGGGCAACCCAGGGCAGAGGGGCCAGGUCUGCCCAGCGUUUACCACUGCUGUCAAGCCACAGCCCUUGGCCACCAUACGGGCCAU | 0.171
AGUUACAUAAUUUUAUGGACUAUAGAGAUGGCGUCCCACUGAUGUGAGAAACAUCACAACAGCGAGGAAAGCACUGUGAGUAUAUCAGAAUGAAAACAUCCCUGCUUCCC | 0.269
GACUUGGUCAAGUGAGCAACUGAUUCUUGUUUUUAGCAACUCAAAACAUAAAAAGAUCAGGAGAGCAUGACACGGUCUCUUUGUGGCCAGUCAGAAAAGCAAACUAACAG | 14.6
GUGGGCUUGUUAUUGGGAUGAAGACUGCUGGAAGGGACUCCUUGCUGUUUAUCUACUGCUUUGAGCCCUCCUAAGUUAACCUGUGCCUCAUUUGUAAAACCACCAGCAUC | 0.494

Series 2 — method: protein binding microarray; form: double-stranded DNA, one strand shown; sample: in vitro; tested at: not given; reference: not given; reading: higher = stronger binding
Target: Histone acetyltransferase KAT6A, winged helix 2, GST fusion (KAT6A, Homo sapiens, UniProt Q92794, residues 85-181)
Notes: 8-mer, flanks averaged, mean of 2 arrays, mostly near background
Target sequence (chain): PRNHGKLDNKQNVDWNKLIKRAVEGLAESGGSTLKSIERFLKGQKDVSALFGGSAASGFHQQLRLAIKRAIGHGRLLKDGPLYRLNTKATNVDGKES
Sequence | E-score
TAAAAGAA | 0.00266
ATCTCCAC | -0.0686
GCATAAAA | 0.0693
CTCGTGGC | 0.0829
ACCTTCTC | -0.0318
CACTAGCG | 0.0263
CGGCTCTC | 0.118
ACCTAATG | -0.2
CATCTTCG | 0.0277
TAAAGGAA | -0.142
CTACCAAC | 0.0689
ACCCGTGC | -0.0208
CAGACAAC | -0.0681
ACTATTCG | -0.132

Series 3 — target: CCNA2, cyclin fold, Cln2 fusion (human); method: yeast growth competition, sequencing; sample: yeast; notes: strong parent motif; reference: not given; reading: higher = stronger binding
Starting sequence: RBL1 docking peptide (human); GSAKRRLFGEDPP
Variant | normalised enrichment score
A3T | 4.66
F8A | 0.384
G9V | 7.2
D11A | 5.88
S2L | 4.87
A3M | 1.63
D11R | 4.91
F8C | 0.6
L7D | 0.054
P12A | 5.92

Single results of other studies
Substance | target | assay | test system | conditions | scale | endpoint | value
PhoQ, residues 284 288 289 292 302 303 SACGEM | PhoP, residues 12 14 15 18 19 QQAYL (Escherichia coli, UniProt P23836) | Sort-seq, refers to: YFP reporter | E. coli | PhoQ-PhoP variant library, with: 10 µM Mg2+ | reference: high Mg2+ state, higher = stronger signaling | fold induction | 2.71
